{"sequences": {"note": "By UniProt entry, the sequences of proteins in these tests, tags left out.", "UniProt P04150, whole entry": "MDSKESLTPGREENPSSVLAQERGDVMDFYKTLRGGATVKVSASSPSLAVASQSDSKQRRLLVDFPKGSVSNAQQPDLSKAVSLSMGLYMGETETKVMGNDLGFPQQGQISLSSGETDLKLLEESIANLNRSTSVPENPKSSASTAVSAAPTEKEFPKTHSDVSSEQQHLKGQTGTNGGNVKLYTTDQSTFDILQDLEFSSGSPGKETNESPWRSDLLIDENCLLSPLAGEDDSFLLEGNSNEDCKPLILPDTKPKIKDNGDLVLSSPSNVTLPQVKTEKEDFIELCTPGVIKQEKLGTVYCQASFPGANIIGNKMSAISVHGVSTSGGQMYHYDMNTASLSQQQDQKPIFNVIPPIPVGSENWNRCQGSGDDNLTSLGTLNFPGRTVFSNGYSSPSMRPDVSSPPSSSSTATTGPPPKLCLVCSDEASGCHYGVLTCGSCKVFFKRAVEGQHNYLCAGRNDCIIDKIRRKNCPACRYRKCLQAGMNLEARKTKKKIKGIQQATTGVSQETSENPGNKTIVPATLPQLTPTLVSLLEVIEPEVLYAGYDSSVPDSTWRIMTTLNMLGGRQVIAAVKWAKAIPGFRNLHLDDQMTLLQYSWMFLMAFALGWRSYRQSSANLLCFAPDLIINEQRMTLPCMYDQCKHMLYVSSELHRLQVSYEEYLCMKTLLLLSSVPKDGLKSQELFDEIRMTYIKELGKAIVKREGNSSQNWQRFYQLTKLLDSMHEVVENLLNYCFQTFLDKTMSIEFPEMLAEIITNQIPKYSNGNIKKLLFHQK", "UniProt P48729, whole entry": "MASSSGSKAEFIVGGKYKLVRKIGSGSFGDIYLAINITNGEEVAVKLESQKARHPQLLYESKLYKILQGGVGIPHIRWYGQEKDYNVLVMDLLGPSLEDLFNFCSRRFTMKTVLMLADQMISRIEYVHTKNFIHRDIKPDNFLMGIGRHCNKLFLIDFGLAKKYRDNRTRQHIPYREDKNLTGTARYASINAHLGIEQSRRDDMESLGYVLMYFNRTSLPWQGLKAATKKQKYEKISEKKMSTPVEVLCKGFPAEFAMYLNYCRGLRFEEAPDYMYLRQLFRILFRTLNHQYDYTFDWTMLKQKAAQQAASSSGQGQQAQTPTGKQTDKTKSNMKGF", "UniProt O15164, whole entry, looked up": "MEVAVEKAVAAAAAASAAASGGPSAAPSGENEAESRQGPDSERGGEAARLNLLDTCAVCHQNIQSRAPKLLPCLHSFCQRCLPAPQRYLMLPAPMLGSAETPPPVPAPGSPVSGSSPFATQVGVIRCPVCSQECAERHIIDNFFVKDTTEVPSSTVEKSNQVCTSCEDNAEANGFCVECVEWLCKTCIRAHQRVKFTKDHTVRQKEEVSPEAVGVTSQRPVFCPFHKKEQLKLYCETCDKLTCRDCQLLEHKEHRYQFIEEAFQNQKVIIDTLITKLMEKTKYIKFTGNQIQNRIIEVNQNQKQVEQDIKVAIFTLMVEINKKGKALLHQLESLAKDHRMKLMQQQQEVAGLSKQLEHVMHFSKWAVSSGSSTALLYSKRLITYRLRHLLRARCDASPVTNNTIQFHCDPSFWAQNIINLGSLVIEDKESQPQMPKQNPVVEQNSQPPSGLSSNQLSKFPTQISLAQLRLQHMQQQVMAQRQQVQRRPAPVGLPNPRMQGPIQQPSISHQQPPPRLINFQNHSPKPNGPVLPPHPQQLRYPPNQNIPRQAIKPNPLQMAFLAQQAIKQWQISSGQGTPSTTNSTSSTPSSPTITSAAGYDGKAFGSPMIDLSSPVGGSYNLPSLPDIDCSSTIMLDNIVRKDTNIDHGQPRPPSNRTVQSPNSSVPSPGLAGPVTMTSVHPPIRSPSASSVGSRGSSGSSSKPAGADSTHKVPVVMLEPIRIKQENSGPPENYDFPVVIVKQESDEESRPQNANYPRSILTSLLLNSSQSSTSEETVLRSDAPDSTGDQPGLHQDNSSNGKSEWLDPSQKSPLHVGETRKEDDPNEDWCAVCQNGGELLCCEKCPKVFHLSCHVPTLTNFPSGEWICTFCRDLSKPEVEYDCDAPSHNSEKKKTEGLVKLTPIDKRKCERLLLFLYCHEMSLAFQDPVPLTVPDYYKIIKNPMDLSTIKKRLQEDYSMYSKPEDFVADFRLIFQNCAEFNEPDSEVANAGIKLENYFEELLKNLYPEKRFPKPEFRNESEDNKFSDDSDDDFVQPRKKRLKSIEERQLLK", "UniProt P10636, whole entry, looked up": "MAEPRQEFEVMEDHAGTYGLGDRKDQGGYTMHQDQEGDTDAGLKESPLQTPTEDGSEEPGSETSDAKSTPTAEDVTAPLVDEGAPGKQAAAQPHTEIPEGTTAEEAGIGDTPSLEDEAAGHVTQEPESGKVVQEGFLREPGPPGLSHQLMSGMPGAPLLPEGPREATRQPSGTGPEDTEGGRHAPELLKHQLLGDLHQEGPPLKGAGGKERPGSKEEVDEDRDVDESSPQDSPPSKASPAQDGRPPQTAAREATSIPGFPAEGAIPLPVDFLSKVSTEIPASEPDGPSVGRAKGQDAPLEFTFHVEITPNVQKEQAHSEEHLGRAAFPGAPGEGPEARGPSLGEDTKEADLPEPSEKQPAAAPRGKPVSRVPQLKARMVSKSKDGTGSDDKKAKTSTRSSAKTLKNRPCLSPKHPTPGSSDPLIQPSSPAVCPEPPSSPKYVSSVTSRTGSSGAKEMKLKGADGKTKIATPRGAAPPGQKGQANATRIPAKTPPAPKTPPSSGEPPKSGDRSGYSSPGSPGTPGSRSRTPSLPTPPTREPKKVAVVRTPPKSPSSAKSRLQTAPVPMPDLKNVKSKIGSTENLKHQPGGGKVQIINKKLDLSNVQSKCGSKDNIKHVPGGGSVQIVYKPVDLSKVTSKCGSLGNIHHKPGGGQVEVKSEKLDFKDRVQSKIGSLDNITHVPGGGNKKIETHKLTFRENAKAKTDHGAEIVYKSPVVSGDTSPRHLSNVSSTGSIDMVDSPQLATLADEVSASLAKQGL"}, "data": "Experimental data of several laboratories", "NR3C1": "Glucocorticoid receptor (NR3C1, Homo sapiens, UniProt P04150)", "note": "Each line is one published result; not all experiments were run side by side. Several values in a cell are separate wells, animals, samples, runs or records. ± gives the spread as reported."}
{"SMILES": "Fc1cccc(-n2cnc3c(NCc4nc5cc(Cl)ccc5[nH]4)nc(N4CCNCC4)nc32)c1", "tested on": "CSNK1A1 (Homo sapiens, UniProt P48729)", "test": "KINOMEscan competition binding", "setting": "10 µM", "scale": "baseline: control", "quantity": "remaining binding", "result": "10%"}
{"SMILES": "O=C(/C=C/c1nc2ccccc2[nH]1)c1c(-c2ccccc2)c2cc(Cl)ccc2[nH]c1=O", "system": "C3H/HeJ mouse, SW1 syngeneic melanoma", "setting": "oral gavage, 100 mg/kg, 3 times weekly", "scale": "baseline: vehicle", "quantity": "tumour size reduction", "result": "> 2 fold"}
{"SMILES": "c1cc2cn[nH]c2cc1-c1cnc2ccc(NC3CCOCC3)nn12", "tested on": "HuR", "test": "western blot", "system": "cytoplasm", "setting": "concentration not given", "scale": "baseline: untreated", "quantity": "protein level", "result": "decreased"}
{"SMILES": "Cc1c(O)cc2c(c1C)O[C@](C)(CCCC(C)C)CC2", "tested on": "LNCaP", "test": "immunocytochemistry", "setting": "35 µM, 6 h", "quantity": "membrane-associated PDK1", "result": "> 90%"}
{"SMILES": "CC(C)C1=C[C@@]23CC[C@@H]4[C@](C)(CCC[C@@]4(C)C(=O)O)[C@@H]2C[C@@H]1[C@@H](C(=O)O)[C@@H]3C(=O)O", "tested on": "NR3C1", "test": "nuclear translocation, agonist, enzyme fragment complementation", "quantity": "EC50", "result": "> 9000 nM"}
{"SMILES": "Cc1cccc(NC(=O)c2nn(Cc3cnc[nH]3)c3c2CN(C(=O)c2ccc[nH]2)CC3)c1", "tested on": "IDH1 R132C AML cells", "test": "granulocytic differentiation, flow cytometry", "setting": "3 µM, 6 to 7 days", "scale": "baseline: DMSO", "quantity": "CD15-positive cells", "result": "0.92 ± 0.4 fold"}
{"SMILES": "Cc1cc(C)c(CNC(=O)c2cc(-c3ccc(N4CCN(CCNC(=O)CC56CC7CC(CC(C7)C5)C6)CC4)nc3)cc3c2cnn3C(C)C)c(=O)[nH]1", "tested on": "panel of 45 kinases", "test": "kinase activity", "setting": "10 µM", "quantity": "inhibition", "result": "< 10%"}
{"SMILES": "CCN1CCN(Cc2ccc(NC(=O)c3ccc(C)c(Oc4ncnc5cc(OC)c(OC)cc45)c3)cc2C(F)(F)F)CC1", "tested on": "FLT3-ITD kinase domain human", "test": "enzyme activity, Z'-LYTE", "setting": "added: ATP at Km", "quantity": "IC50", "result": "440 nM"}
{"SMILES": "COc1cc(CC(=O)NCC(NC(=O)C(CCCNC(=O)c2cccc(I)c2)NC(=O)C(Cc2ccc(C(F)(F)P(=O)(O)O)cc2)NC(=O)c2ccc(C)c(Br)c2)C(N)=O)ccc1O (centres unmarked)", "tested on": "primary mouse hepatocytes", "test": "Western blot", "setting": "100 nM, 1 h, added: insulin 5 nM, 5 min", "scale": "baseline: DMSO", "quantity": "IR Tyr1162/1163 phosphorylation increase", "result": "100%"}
{"SMILES": "O=C(Nc1cccnn1)N1CC(Oc2ccc(-c3ccccc3F)cn2)C1", "test": "measured: anandamide", "system": "healthy humans, plasma", "setting": "oral, repeated dosing, trough concentration-response", "quantity": "Emax", "result": "~3 ng/mL"}
{"SMILES": "CC(C)c1cc2c(N3CCN(C4=NCC(C)(C)S4)CC3)ncnc2s1", "tested on": "MLL-AF9 transduced mouse BMC", "test": "cell growth, MTT", "quantity": "GI50", "result": "~5000 nM"}
{"SMILES": "C[C@@]12CC[C@H]3[C@H](CCC4=CC(=O)CC[C@H]43)[C@H]1CC[C@H]2OC1(O)C(=O)c2ccccc2C1=O", "tested on": "NR3C1", "test": "nuclear translocation, agonist, enzyme fragment complementation", "quantity": "EC50", "result": "> 9000 nM"}
{"SMILES": "CCCCCCCC(=O)OCC(COP(=O)(O)OC1C(O)C(O)C(OP(=O)(O)O)C(OP(=O)(O)O)C1O)OC(=O)CCCCCCC (centres unmarked)", "tested on": "PLCδ1 PH-ASAP1 chimera", "test": "membrane binding, sedimentation", "system": "LUVs with PtdSer", "quantity": "Kd", "result": "700 nM and 730 nM"}
{"SMILES": "Nc1c(C(=O)Nc2c(F)cc(F)cc2Br)sc2nc3c(cc12)CCC3", "tested on": "H1299", "setting": "concentration not given, 12 h", "quantity": "GSSG level", "result": "increased"}
{"SMILES": "CC[C@@H]1C(=O)N(C)c2cnc(Nc3ccc(C(=O)NC4CCN(C)CC4)cc3OC)nc2N1C1CCCC1", "tested on": "TRIM24 (Homo sapiens, UniProt O15164)", "setting": "10 µM", "quantity": "delta Tm", "result": "-0.43 ± 0.18 °C"}
{"SMILES": "Fc1cc(-c2ccc3c(n2)[nH]c2ccncc23)ccn1 [isotope labelled]", "tested on": "Microtubule-associated protein tau, paired helical filaments (MAPT, Homo sapiens, UniProt P10636)", "test": "radioligand binding", "system": "PHF tau brain homogenate", "setting": "102.04 nM", "scale": "higher = more binding", "quantity": "specific binding", "result": "20.2 a.u."}
{"SMILES": "Cc1ccc([C@H](CC(=O)O)NC(=O)Nc2c(O)c(C)cn(Cc3ccccc3Cl)c2=O)cc1", "test": "measured: hCD45+ hCD19+", "system": "LAX7R xenograft, NSG mouse, bone marrow and spleen", "setting": "intraperitoneal, 60 mg/kg, 8 h", "quantity": "leukemic cells", "result": "no effect"}
